{"data": "Measured values collected from several papers", "note": "Each line is one published result; not all experiments were run side by side. Numbers after ± are the reported error. Non-standard residues stand in square brackets, D forms with d."}
{"Molecule": "IINFEKE", "target": "ERAP1 human wild type", "assay": "activator", "system": "peptide", "setting": "100 µM, pH 8.0, 27 °C, added: L-AMC substrate", "quantity": "Vmax of L-AMC hydrolysis", "value": "169 ± 6 nmol/min/µg"}
{"Molecule": "O=C1CNC(=O)c2coc(n2)-c2coc(n2)-c2cccc(c2)-c2cccc(c2)-c2nc(co2)-c2nc(co2)CN1", "target": "human telomeric quadruplex d(TTAGGG)4", "assay": "UV melting", "setting": "20 µM, pH 7.5, added: 50 mM K+", "how to read": "reference: DNA without compound", "quantity": "melting temperature shift", "value": "4.8 °C"}
{"Molecule": "RAFPNAPYL", "target": "HLA-A2 (human)", "assay": "peptide-MHC dissociation, flow cytometry", "system": "peptide", "setting": "37 °C", "quantity": "complex half-life", "value": "1.2 h"}
{"Molecule": "c1cnc2c(c1)ccc1cccnc12", "target": "bovine lens protease", "setting": "1 mM, 37 °C", "quantity": "remaining activity", "value": "1%"}
{"Molecule": "CN(C)CC[C@@H]1NC(=O)c2coc(n2)-c2coc(n2)-c2cccc(c2)-c2cccc(c2)-c2nc(co2)-c2nc(co2)CNC1=O", "target": "human telomeric quadruplex d(TTAGGG)4", "assay": "UV melting", "setting": "20 µM, pH 7.5, added: 150 mM K+", "how to read": "reference: DNA without compound", "quantity": "melting temperature shift", "value": "10.6 °C"}
{"Molecule": "COc1cc2c3c4c1Oc1cc5c(cc1O4)[C@@H](Cc1ccc(O)c(c1)Oc1ccc(cc1)C[C@@H]3N(C)CC2)N(C)CC5", "target": "pre-miR-21 RNA", "assay": "differential scanning fluorimetry", "how to read": "reference: untreated, positive = stabilisation", "quantity": "maximal ΔTm", "value": "5.48 °C"}
{"Molecule": "CC(C)[C@@H]1NC(=O)c2coc(n2)-c2coc(n2)-c2coc(n2)[C@H](CCN(C)C)NC(=O)c2coc(n2)-c2coc(n2)-c2coc1n2", "target": "human telomeric quadruplex d(TTAGGG)4", "assay": "UV melting", "setting": "20 µM, pH 7.5, added: 150 mM K+", "how to read": "reference: DNA without compound", "quantity": "melting temperature shift", "value": "29.1 °C"}
{"Molecule": "CCCCCCC(C=O)=Cc1ccccc1", "target": "cysteine peptide Ac-RFAACAA-COOH", "assay": "DPRA RapidFire-MS/MS", "setting": "24 h, pH 7.5, added: 5.0 µM cysteine peptide", "quantity": "peptide depletion", "value": "inactive"}
{"Molecule": "COc1cc2c3c(cc4ccccc4c3c1OC)N(C)CC2", "target": "pre-miR-21 RNA", "assay": "differential scanning fluorimetry", "how to read": "reference: untreated, positive = stabilisation", "quantity": "maximal ΔTm", "value": "-15.7 °C"}
{"Molecule": "CC(C)(C)OC(=O)NCC[C@@H]1NC(=O)c2coc(n2)-c2coc(n2)-c2cccc(c2)-c2cccc(c2)-c2nc(co2)-c2nc(co2)CNC1=O", "target": "human telomeric quadruplex d(TTAGGG)4", "assay": "UV melting", "setting": "20 µM, pH 7.5, added: 150 mM K+", "how to read": "reference: DNA without compound", "quantity": "melting temperature shift", "value": "1.1 °C"}
{"Molecule": "O=c1oc(Cl)c(Cl)c2ccccc12", "target": "bovine lens protease", "assay": "enzyme activity, inhibitor", "setting": "500 µM, 30 min preincubation, 37 °C", "quantity": "remaining activity", "value": "15%"}
{"Molecule": "CCCC[C@H]1CCCCCCc2[nH]c(/C=C3\\N=CC(c4ccc[nH]4)=C3OC)cc21", "target": "pre-miR-21 RNA", "assay": "differential scanning fluorimetry", "how to read": "reference: untreated, positive = stabilisation", "quantity": "maximal ΔTm", "value": "3.1 °C"}
{"Molecule": "CC(=O)[C@H]1CC[C@H]2[C@@H]3CCC4=CC(=O)CC[C@]4(C)[C@H]3CC[C@]12C", "target": "membrane progesterone receptors α and β", "assay": "binding, saturation radioligand binding", "system": "MDA-MB-468, plasma membranes", "setting": "30 min, pH 7.6, 4 °C", "quantity": "Kd", "value": "6.03 nM"}
{"Molecule": "CC(C)[C@@H]1NC(=O)c2coc(n2)-c2coc(n2)-c2cccc(c2)-c2cccc(c2)-c2nc(co2)-c2nc(co2)CNC1=O", "target": "human telomeric quadruplex d(TTAGGG)4", "assay": "UV melting", "setting": "20 µM, pH 7.5, added: 150 mM K+", "how to read": "reference: DNA without compound", "quantity": "melting temperature shift", "value": "4.1 °C"}
{"Molecule": "Nc1nc2c(ncn2[C@@H]2O[C@H](COP(=O)(O)OP(=O)(O)OP(=O)(O)O)[C@@H](O)[C@H]2O)c(=O)[nH]1", "target": "volume-regulated anion channel", "setting": "0 mV, added: total nucleotide 1 mM", "quantity": "Kd", "value": "600000 ± 300000 nM"}
{"Molecule": "OCC(O)CO", "target": "cysteine peptide Ac-RFAACAA-COOH", "assay": "DPRA RapidFire-MS/MS", "setting": "24 h, pH 7.5, added: 5.0 µM cysteine peptide", "quantity": "peptide depletion", "value": "inactive"}
{"Molecule": "CCCCCCCC/C=C\\CCCCCCCC(=O)OCC(COC(=O)CCCCCCC/C=C\\CCCCCCCC)OC(=O)CCCCCCC/C=C\\CCCCCCCC", "target": "amyloid beta peptide", "assay": "brain/serum ratio", "system": "male CD-1 mouse", "setting": "intravenous, 7.2 mg, 10 min, added: radioiodinated Aβ co-injected, LPS-treated mice", "quantity": "LPS-enhanced brain uptake of I-Aβ", "value": "inhibited"}
{"Molecule": "CC(C=O)Cc1ccc(C(C)C)cc1 (centres unmarked)", "target": "cysteine peptide Ac-RFAACAA-COOH", "assay": "DPRA RapidFire-MS/MS", "setting": "24 h, pH 7.5, added: 5.0 µM cysteine peptide", "quantity": "maximal peptide depletion", "value": "-14.8%"}
{"Molecule": "Nc1ncnc2c1ncn2[C@H]1C[C@@H]2OP(=O)(O)OC[C@H]2O1", "target": "cAMP antibody", "assay": "binding, non-acetylated EIA", "quantity": "EC50", "value": "19 nM"}
{"Molecule": "C=CC(=O)Nc1ccc(C(=O)Nc2n[nH]c3c2CN(C(=O)N[C@H](CN(C)C)c2ccccc2)C3(C)C)cc1", "target": "human CDK7", "assay": "RNA polymerase II phosphorylation, inhibitor", "system": "HeLa", "setting": "6 h", "quantity": "minimum effective concentration", "value": "62.5 nM"}
{"Molecule": "CC(=O)N[C@@H](CC(=O)O)C(=O)N[C@@H](CC(C)C)C(=O)N[C@@H](Cc1c[nH]c2ccccc12)C(=O)N[C@@H](CCCCN)C(=O)N[C@@H](CC(C)C)C(=O)NCCCOCCOCCOCCCNC(=O)CCCCCCCCCCS", "target": "anti-p53 antibody", "assay": "binding, AFM force spectroscopy", "setting": "first monolayer", "quantity": "adhesion pull-off force", "value": "1.7e-10 ± 1.3e-11 N"}
{"Molecule": "CC(C)=CCC/C(C)=C/CC/C(C)=C/CSc1ccccc1C(=O)O", "target": "mTOR", "assay": "inhibitor, Western blot, refers to: phospho-p70S6K", "system": "cancer cells", "quantity": "effective concentration", "value": "25 µM"}
{"Molecule": "COc1ccc(CCCOC(Cn2ccnc2)c2ccc(OC)cc2)cc1 (centres unmarked)", "target": "muscarinic receptor-gated TRPC4 channel (mouse)", "assay": "receptor-gated current, inhibitor, whole-cell patch clamp", "setting": "10 µM, holding potential -60 mV, added: 100 µM carbachol", "quantity": "inhibition", "value": "55.5 ± 5.6%"}
{"Molecule": "H-H[dW][dK]W[dF]K-NH2 (D-Trp, D-Lys, D-Phe, C-amide)", "target": "CXCR4 (human)", "assay": "T cell chemotaxis, antagonist, Transwell migration", "system": "primary human T cells", "setting": "concentration not given, 5 h, 37 °C, added: CXCL12 10 nM", "quantity": "inhibition", "value": "20 to 60%"}
{"Molecule": "COC(=O)C1=C(C)NC(C)=C(C(=O)OC)C1c1ccccc1[N+](=O)[O-]", "target": "T-type calcium channel, guinea pig", "assay": "calcium current, blocker, whole-cell patch clamp", "system": "guinea pig atrial myocytes", "quantity": "Kd", "value": "100 nM"}
{"Molecule": "CCCCCCCCc1ccc(CC[C@](N)(CO)COP(=O)(O)O)cc1", "target": "human GIRK channel", "assay": "ion current, activator, patch clamp", "system": "human atrial myocytes", "how to read": "reference: 20 µM carbachol", "quantity": "EC50", "value": "8.5 nM"}
{"Molecule": "O=C(OCc1ccccc1)c1ccccc1", "target": "cysteine peptide Ac-RFAACAA-COOH", "assay": "DPRA RapidFire-MS/MS", "setting": "24 h, pH 7.5, added: 5.0 µM cysteine peptide", "quantity": "peptide depletion", "value": "inactive"}
{"Molecule": "Nc1ncnc2c1ncn2[C@@H]1O[C@H](COP(=O)(O)OP(=O)(O)OP(=O)(O)O)[C@@H](O)[C@H]1O", "target": "TsaB TsaC TsaD TsaE, Escherichia coli", "assay": "substrate", "setting": "23 °C, added: L-threonine 50 mM, tRNALys 10 µM", "quantity": "Km", "value": "60 ± 6 µM"}
{"Molecule": "NCCCCCCCCNS(=O)(=O)c1cccc2c(I)cccc12", "target": "anoctamin-1 rat", "assay": "Ca2+-activated Cl- current", "system": "HEK293 transfected", "setting": "50 µM, 10 to 70 min, -70 mV", "quantity": "current density", "value": "271 ± 56 pA/pF"}
{"Molecule": "N[C@@H](CCC(=O)Nc1ccc(F)cc1)C(=O)O", "target": "glutamate transporters", "system": "PC-3", "setting": "concentration not given, 5 min, 37 °C, added: [3H]-L-glutamate 150 µM", "how to read": "reference: basal uptake", "quantity": "[3H]-L-glutamate uptake", "value": "101 ± 13%"}
{"Molecule": "CC(CC=O)CCCC(C)(C)O (centres unmarked)", "target": "cysteine peptide Ac-RFAACAA-COOH", "assay": "DPRA RapidFire-MS/MS", "setting": "24 h, pH 7.5, added: 5.0 µM cysteine peptide", "quantity": "peptide depletion", "value": "inactive"}
{"Molecule": "Cc1ccccc1N=Nc1ccc(NC(=O)c2ccnn2C)c(C)c1", "target": "aryl hydrocarbon receptor", "assay": "inhibitor, immunoblot", "system": "HT-29", "setting": "5 µM, added: 12.5 µM GarD + 50 µM tBHP", "quantity": "ZO-1 and occludin level", "value": "decreased"}
{"Molecule": "WHWNAWALPTHG", "target": "VEGFR-3 (human)", "assay": "binding, ELISA", "system": "peptide", "quantity": "affinity constant", "value": "9.2 ± 2.1 µg/mL"}
{"Molecule": "CC(=O)N[C@@H](CC(N)=O)C(=O)NCC(=O)N[C@@H](CCCCN)C(=O)N[C@@H](C)C(N)=O", "target": "Asn-Gly peptide isomerisation to succinimide", "assay": "1H NMR time course", "setting": "pH 7.4, 28 °C", "quantity": "rate constant k1", "value": "0.009 h⁻¹"}
{"Molecule": "CN(C)CCc1cc2cc(c1)CNC(=O)c1coc(n1)-c1coc(n1)-c1cccc(n1)-c1nc(co1)-c1nc(co1)C(=O)NC2", "target": "human telomeric quadruplex d(TTAGGG)4", "assay": "UV melting", "setting": "20 µM, pH 7.5, added: 150 mM K+", "how to read": "reference: DNA without compound", "quantity": "melting temperature shift", "value": "28.1 °C"}
{"Molecule": "Nc1nc2[nH]c(Cc3ccc(C(=O)N[C@@H](CCC(=O)O)C(=O)O)cc3)cc2c(=O)[nH]1", "target": "folate receptor beta, human", "system": "D4 cells", "setting": "concentration not given, 15 min, 0 °C, added: [3H]folic acid 50 nM", "how to read": "reference: folic acid, higher = stronger binding", "quantity": "relative binding affinity", "value": "< 0.01"}
{"Molecule": "O=C1N[C@@H](Cc2ccccc2)C(=O)NCc2coc(n2)-c2coc(n2)-c2cccc(c2)-c2cccc(c2)-c2nc(co2)-c2nc1co2", "target": "human telomeric quadruplex d(TTAGGG)4", "assay": "UV melting", "setting": "20 µM, pH 7.5, added: 50 mM K+", "how to read": "reference: DNA without compound", "quantity": "melting temperature shift", "value": "2.8 °C"}
{"Molecule": "O=c1c(O[C@@H]2O[C@H](CO)[C@@H](O)[C@H](O)[C@H]2O)c(-c2ccc(O)c(O)c2)oc2cc(O)cc(O)c12", "target": "Mrp2 (rat)", "assay": "western blot, refers to: MRP2", "system": "rats, liver", "setting": "intravenous, 5 mg/kg, 7 days", "how to read": "reference: vehicle control", "quantity": "protein level decrease", "value": "26.1%"}
{"note": "For quick reference, copied from above:"}
{"Molecule": "N[C@@H](CCC(=O)Nc1ccc(F)cc1)C(=O)O", "target": "glutamate transporters", "system": "PC-3", "setting": "concentration not given, 5 min, 37 °C, added: [3H]-L-glutamate 150 µM", "how to read": "reference: basal uptake", "quantity": "[3H]-L-glutamate uptake", "value": "101 ± 13%"}
{"Molecule": "Nc1nc2c(ncn2[C@@H]2O[C@H](COP(=O)(O)OP(=O)(O)OP(=O)(O)O)[C@@H](O)[C@H]2O)c(=O)[nH]1", "target": "volume-regulated anion channel", "setting": "0 mV, added: total nucleotide 1 mM", "quantity": "Kd", "value": "600000 ± 300000 nM"}
